# Published values from different studies.
# Lines come from different studies, so protocols differ. Values joined by “and” are separate records of one study, mostly repeats; a detail may differ. ± marks the error that the study gave.
SMILES,test,test system,conditions,scale,quantity,result
CC/C(=C(\c1ccccc1)c1ccc(OCCN(C)C)cc1)c1ccccc1,,"CD-1 mouse, male, lung","intraperitoneal, 30 mg/kg",,Tmax,6 h
O=C(Nc1ccccc1)C1CCN(C(=O)Oc2cccnc2)CC1,psychotropic effects VAS,healthy women,100 mg,"reference: pre-dose baseline, direction not given",change in Drowsy score,3.1
CC1=C(O)C(=O)C=C2C1=CC=C1[C@@]2(C)CC[C@@]2(C)[C@@H]3C[C@](C)(C(=O)O)CC[C@]3(C)CC[C@]12C,,"Sprague-Dawley rat pups, multiple-hit infantile spasms model","i.p., 4 mg/kg, PN3 to PN5, CELA-4 arm",,body weight gain rate,0.5 g/day
Clc1cc(-c2cc(Cl)c(Cl)c(Cl)c2)cc(Cl)c1Cl,,fresh water,"20 °C, SSP sampler, 100 µm",,log K(PDMS-water),5.76 ± 0.17
CN1CC[C@@H](c2c(O)cc(O)c3c(=O)cc(-c4ccc(C(F)(F)F)cc4Cl)oc23)[C@@H]1CO,measured: Leukopenia,relapsed AML,"oral, 100 mg, grade 3-4, intermittent dosing",,patients with adverse event,0%
Clc1cc(Cl)c(-c2c(Cl)cc(Cl)cc2Cl)c(Cl)c1,,fresh water,"20 °C, SSP sampler, 100 µm",,log K(PDMS-water),6.58 ± 0.02
CCc1ccc(CC/C=C/c2ccc3c(c2)C(=O)CC3)cc1,,"Sprague-Dawley rat, female","oral, 450 mg/kg/day, 14 days",,Glucose,6.58 mM
C[C@]1(CO)Cc2ncn(-c3ccc(C#N)c(Cl)c3)c2C(=O)O1,,healthy humans,"10 mg, fasted",,drug-related Dizziness incidence,0%
O=[N+]([O-])c1cc2c3c(ccc2c2ccccc12)[C@@H](O)[C@H](O)C=C3,,female Sprague-Dawley rats,"intramammary, 12.3 µmol per rat, 32 weeks, others",,rats with mammary tumours,0%
CCOc1cc(Oc2ccc(C(F)(F)F)cc2Cl)ccc1[N+](=O)[O-],,"rat, male","500 mg/kg, 4 days",,final body weight,94.5 ± 4.6 g
COc1ccc2nc3cc(Cl)ccc3c(Nc3cc(CN4CCCC4)c(O)c(CN4CCCC4)c3)c2n1,,"mouse, blood","intraperitoneal, 57 mg/kg",,neutrophils,25.1%
[O-][S+]1CCc2nc(N3CCC(c4ncc(Cl)cn4)CC3)nc(NC3(CO)CCC3)c21 (stereo not drawn),measured: nervous system disorders,healthy male humans,48 mg single dose,,adverse event incidence,50%
CC1(C)C(C=C(Cl)Cl)C1C(=O)OC(C#N)c1ccc(F)c(Oc2ccccc2)c1 (stereo not drawn),,pooled human liver microsomes,,,CLint,0.664 mL/min/mg protein
CO[C@H]1C[C@@H]2CC[C@@H](C)[C@@](O)(O2)C(=O)C(=O)N2CCCC[C@H]2C(=O)O[C@H]([C@H](C)C[C@@H]2CC[C@@H](OC(=O)NCCOCCOCCOCCOCCOCCOCCOCCOCCC(=O)N3CCc4cc(Cn5nc(-c6ccc7oc(N)nc7c6)c6c(N)ncnc65)ccc4C3)[C@H](OC)C2)C[C@@H](O)[C@H](C)/C=C(\C)[C@@H](O)[C@@H](OC)C(=O)[C@H](C)C[C@H](C)/C=C/C=C/C=C/1C,,patients with advanced solid tumours,"intravenous, 10 mg weekly, any grade",,anaemia incidence,0%
C[C@@H](NC(=O)N1C(=O)[C@H](Cc2ccnc(N)c2)[C@H]1C(=O)O)C1CCCCC1,,healthy adult Chinese volunteers,"continuous intravenous infusion, 0.6 mg/kg/h, 5-day infusion, CTCAE 5.0 grading",,incidence of decreased neutrophil,0%
Cn1ncc(-c2nc(N[C@H]3CC[C@H](N)CC3)ncc2Cl)c1CC1CC1,phase I dose escalation,human patients,"dose not given, treatment-related grade 3 or higher",,platelet count decrease incidence,3.2%
CN[C@H]1CC[C@@H](c2ccc(Cl)c(Cl)c2)c2ccccc21,,"CD-1 mouse, male, lung","intraperitoneal, 10 mg/kg",,Tmax,0.5 h
CC(C)[C@@H]1NC(=O)CNC(=O)[C@H](CC(N)=O)NC(=O)[C@H](CCCNC(=N)N)NC(=O)[C@H](Cc2ccc(O)cc2)NC(=O)[C@H](C(C)C)NC(=O)[C@@H](NC(=O)[C@@H](NC(=O)[C@H](CC(N)=O)NC(=O)[C@H](Cc2c[nH]c3ccccc23)NC(=O)[C@H](C)NC(=O)[C@H](Cc2ccccc2)NC(=O)CN)C(C)C)CSSC[C@@H](C(=O)N[C@@H](Cc2c[nH]cn2)C(=O)N[C@@H](CCCNC(=N)N)C(=O)N[C@@H](CCCNC(=N)N)C(=O)N[C@@H](C)C(=O)N[C@@H](CC(N)=O)C(N)=O)NC(=O)[C@H](C(C)C)NC(=O)[C@H](CCCNC(=N)N)NC1=O,"circular dichroism, measured: Parallel",PBS,"80 µM, pH 7.4, together with: LPS 1 µM",,secondary structure content,3.08%
N.N.[Cl][Pt][Cl],,mouse xenograft model,"dose not given, day 2, group mean",,body weight,24.8 g
C[C@@H]1NC(=O)[C@H](CCCCNC(=O)CO/N=C/C(=O)NCCCC[C@@H]2NC(=O)[C@@H](Cc3ccccc3)NC(=O)[C@H](CC(=O)O)NC(=O)CNC(=O)[C@H](CCCNC(=N)N)NC2=O)NC(=O)CNC(=O)[C@@H]2CCCN2C(=O)[C@H](CCCCNC(=O)CO/N=C/C(=O)NCCCC[C@@H]2NC(=O)[C@@H](Cc3ccccc3)NC(=O)[C@H](CC(=O)O)NC(=O)CNC(=O)[C@H](CCCNC(=N)N)NC2=O)NC(=O)[C@H](CCCCNC(=O)[C@H](CCCCN)NC(=O)[C@H](Cc2ccccc2)NC(=O)CNC(=O)CN2CCCNCCNCCCNCC2)NC(=O)[C@H](CCCCNC(=O)CO/N=C/C(=O)NCCCC[C@@H]2NC(=O)[C@@H](Cc3ccccc3)NC(=O)[C@H](CC(=O)O)NC(=O)CNC(=O)[C@H](CCCNC(=N)N)NC2=O)NC(=O)CNC(=O)[C@@H]2CCCN2C(=O)[C@H](CCCCNC(=O)CO/N=C/C(=O)NCCCC[C@@H]2NC(=O)[C@@H](Cc3ccccc3)NC(=O)[C@H](CC(=O)O)NC(=O)CNC(=O)[C@H](CCCNC(=N)N)NC2=O)NC1=O [copper-64 labelled],,"normal mice, intestine","intravenous, 0.74 MBq, 24 h post-injection",,tissue uptake,1.04 ± 0.05 %ID/g
Cc1ccccc1C(=O)NN=Cc1ccc(O)c(Br)c1,,"C3H/HeN mouse IN model, plasma","intravenous, 0.8 mg/kg",,AUC(0-t),127 ng·h/mL
CC[C@H](C)[C@H](NC(=O)[C@H](CC(C)C)NC(=O)[C@H](Cc1c[nH]c2ccccc12)NC(=O)[C@H](CCC(N)=O)NC(=O)[C@@H](NC(=O)[C@H](Cc1ccccc1)NC(=O)[C@H](C)NC(=O)[C@H](CCCCNC(=O)COCCOCCNC(=O)COCCOCCNC(=O)CC[C@H](NC(=O)CCCCCCCCCCCCCCCCCCC(=O)O)C(=O)O)NC(=O)[C@H](CCC(N)=O)NC(=O)[C@H](C)NC(=O)[C@@H](NC(=O)[C@H](CCCCN)NC(=O)[C@H](CC(=O)O)NC(=O)[C@H](CC(C)C)NC(=O)C(C)(C)NC(=O)[C@@H](NC(=O)[C@H](CO)NC(=O)[C@H](Cc1ccc(O)cc1)NC(=O)[C@H](CC(=O)O)NC(=O)[C@H](CO)NC(=O)[C@@H](NC(=O)[C@H](Cc1ccccc1)NC(=O)[C@@H](NC(=O)CNC(=O)[C@H](CCC(=O)O)NC(=O)C(C)(C)NC(=O)[C@@H](N)Cc1ccc(O)cc1)[C@@H](C)O)[C@@H](C)O)[C@@H](C)CC)[C@@H](C)CC)C(C)C)C(=O)N[C@@H](C)C(=O)NCC(=O)NCC(=O)N1CCC[C@H]1C(=O)N[C@@H](CO)C(=O)N[C@@H](CO)C(=O)NCC(=O)N[C@@H](C)C(=O)N1CCC[C@H]1C(=O)N1CCC[C@H]1C(=O)N1CCC[C@H]1C(=O)N[C@@H](CO)C(N)=O,,"human, plasma","subcutaneous, 15 mg, week 8, geometric mean",,CL/F,0.535 mL/min
COc1cc2c(Oc3ccc4[nH]c(C)cc4c3F)ccnc2cc1OCC1(N)CC1,,paediatric recurrent refractory sarcoma,"concentration not given, whole group",,grade 3 Headache,0%
COc1ccnc(C(=O)N[C@H]2COC(=O)[C@H](Cc3ccccc3)[C@@H](OC(=O)C(C)C)[C@H](C)OC2=O)c1OCOC(=O)C(C)C,,rat,"oral, acute",,LD50,> 2000 mg/kg
Clc1ccc(-c2ccc(Cl)cc2Cl)cc1,,polyethylene-water partitioning,PCB compilation,reference: maximum over minimum K,literature range factor,1.3
COc1ccc(-c2c(-c3ccc(C#N)c(F)c3)nc(N3CCC(N)CC3)n(C)c2=O)cc1F,measured: Hepatic pain,human patients,"oral, dose not given, dose escalation, NG",,serious adverse event incidence,0%
COc1ncccc1-c1cnn2ccc(N3CCN(C(=O)OC(C)C)CC3)nc12,,"rat, CCI cold allodynia model, brain","oral, 30 mg/kg, 240 min",,drug concentration,10 µM
Cn1cncc1-c1c(F)cncc1NC(=O)c1c(N)nn2cc(F)cnc12,,human patients,"oral, 270 mg once daily, 21 days",,dose-limiting toxicity anaemia,25%
CC(C)C[C@H](NC(=O)[C@H](Cc1ccccc1)NC(=O)[C@H](Cc1ccccc1)NC(=O)Cc1ccc(-c2ccccc2)cc1)C(=O)N[C@@H](CCCCN)C(=O)N[C@@H](CCCNC(=N)N)C(=O)N[C@H](C(=O)N[C@@H](Cc1c[nH]c2ccccc12)C(=O)N[C@@H](CCCCN)C(=O)N[C@@H](CCCNC(=N)N)C(=O)O)C(C)C,,rat liver microsomes,,,hepatic clearance,49.6 mL/min/kg
Clc1ccc(Cl)c(-c2cc(Cl)ccc2Cl)c1,,"Sprague Dawley rat, thymus","intraperitoneal, 1 mg/kg",,relative organ weight,0.0027 g/g body weight
O=S(=O)(Nc1ccccc1)c1ccc(NC(=S)Nc2ccccc2)cc1,measured: BA%,"female mouse, blood","oral, 5 mg/kg daily, 14 days",,blood cell fraction,0.12%
O=C(Nc1ccccc1)C1CCN(C(=O)Oc2cccnc2)CC1,measured: abdominal discomfort,healthy female humans,"concentration not given, safety set, all doses pooled",,TEAE incidence,8%
C1=Cc2nc1cc1ccc([n-]1)c(-c1ccccc1)c1nc(cc3ccc([n-]3)c2-c2ccccc2)C=C1.CC(=O)[O-].[Mn+3],LC-MS/MS,"Sprague-Dawley rat, plasma","oral gavage, dose not given, 30 min",,plasma concentration,35 ng/mL and 21 ng/mL
O[C@H]1CCCN[C@@H]1CCCn1cnc2c(Cl)c(Cl)ccc21,,"healthy humans, plasma",150 mg single dose,,CL/F,3940 mL/min
CN1CCN(c2ccc(Nc3nccc(-c4ccc(Cl)cc4)n3)cc2C(F)(F)F)CC1,,zebrafish embryos,"50 µM, 5 d",,toxicity,0%
Clc1cc(Cl)c(-c2cc(Cl)c(Cl)c(Cl)c2Cl)cc1Cl,,polyethylene-water partitioning,PCB compilation,reference: maximum over minimum K,literature range factor,17
CC(C)CC(=O)OC[C@H]1O[C@@](C#N)(c2ccc3c(N)ncnn23)[C@H](O)[C@@H]1O,,"Sprague-Dawley rat, female, faeces","80 mg/kg, time not given",reference: dose,recovery in faeces,0.0506%
CC(C)C[C@@H]1NC(=O)CNC(=O)[C@H](CC(N)=O)NC(=O)[C@H](CCCNC(=N)N)NC(=O)[C@H]([C@@H](C)O)NC(=O)[C@@H]2CSSC[C@@H]3NC(=O)[C@H]([C@@H](C)O)NC(=O)CNC(=O)CNC(=O)[C@H](C(C)C)NC(=O)[C@@H]4CSSC[C@H](NC(=O)[C@H]([C@@H](C)O)NC(=O)[C@H](CSSC[C@H](NC(=O)[C@H](C(C)C)NC(=O)[C@@H]5CCCN5C1=O)C(=O)NCC(=O)N[C@@H](CCC(=O)O)C(=O)N[C@@H]([C@@H](C)O)C(=O)N4)NC(=O)CNC(=O)[C@@H]1CCCN1C(=O)[C@H]([C@@H](C)O)NC(=O)[C@H](CC(N)=O)NC3=O)C(=O)N[C@@H](CO)C(=O)N[C@@H](Cc1c[nH]c3ccccc13)C(=O)N1CCC[C@H]1C(=O)N[C@@H](CCCCN)C(=O)N2,HPLC,ammonium bicarbonate,"180 µM, 7 days, pH 9.0, 25 °C, deamidation stability",,remaining peptide,89.7 ± 0.8%
NC(=O)[C@H]1CCN(c2ncnc(N)c2F)C[C@@H]1N1CCC[C@@H](Nc2cc(Cl)cc(C(F)(F)F)c2)C1=O,,B-cell malignancy patients,"oral, 328 mg twice daily, dose",,any grade ≥3 adverse event,0%

# Some of these lines once more:
SMILES,test,test system,conditions,scale,quantity,result
CN[C@H]1CC[C@@H](c2ccc(Cl)c(Cl)c2)c2ccccc21,,"CD-1 mouse, male, lung","intraperitoneal, 10 mg/kg",,Tmax,0.5 h
CC(C)[C@@H]1NC(=O)CNC(=O)[C@H](CC(N)=O)NC(=O)[C@H](CCCNC(=N)N)NC(=O)[C@H](Cc2ccc(O)cc2)NC(=O)[C@H](C(C)C)NC(=O)[C@@H](NC(=O)[C@@H](NC(=O)[C@H](CC(N)=O)NC(=O)[C@H](Cc2c[nH]c3ccccc23)NC(=O)[C@H](C)NC(=O)[C@H](Cc2ccccc2)NC(=O)CN)C(C)C)CSSC[C@@H](C(=O)N[C@@H](Cc2c[nH]cn2)C(=O)N[C@@H](CCCNC(=N)N)C(=O)N[C@@H](CCCNC(=N)N)C(=O)N[C@@H](C)C(=O)N[C@@H](CC(N)=O)C(N)=O)NC(=O)[C@H](C(C)C)NC(=O)[C@H](CCCNC(=N)N)NC1=O,"circular dichroism, measured: Parallel",PBS,"80 µM, pH 7.4, together with: LPS 1 µM",,secondary structure content,3.08%
N.N.[Cl][Pt][Cl],,mouse xenograft model,"dose not given, day 2, group mean",,body weight,24.8 g
C[C@@H]1NC(=O)[C@H](CCCCNC(=O)CO/N=C/C(=O)NCCCC[C@@H]2NC(=O)[C@@H](Cc3ccccc3)NC(=O)[C@H](CC(=O)O)NC(=O)CNC(=O)[C@H](CCCNC(=N)N)NC2=O)NC(=O)CNC(=O)[C@@H]2CCCN2C(=O)[C@H](CCCCNC(=O)CO/N=C/C(=O)NCCCC[C@@H]2NC(=O)[C@@H](Cc3ccccc3)NC(=O)[C@H](CC(=O)O)NC(=O)CNC(=O)[C@H](CCCNC(=N)N)NC2=O)NC(=O)[C@H](CCCCNC(=O)[C@H](CCCCN)NC(=O)[C@H](Cc2ccccc2)NC(=O)CNC(=O)CN2CCCNCCNCCCNCC2)NC(=O)[C@H](CCCCNC(=O)CO/N=C/C(=O)NCCCC[C@@H]2NC(=O)[C@@H](Cc3ccccc3)NC(=O)[C@H](CC(=O)O)NC(=O)CNC(=O)[C@H](CCCNC(=N)N)NC2=O)NC(=O)CNC(=O)[C@@H]2CCCN2C(=O)[C@H](CCCCNC(=O)CO/N=C/C(=O)NCCCC[C@@H]2NC(=O)[C@@H](Cc3ccccc3)NC(=O)[C@H](CC(=O)O)NC(=O)CNC(=O)[C@H](CCCNC(=N)N)NC2=O)NC1=O [copper-64 labelled],,"normal mice, intestine","intravenous, 0.74 MBq, 24 h post-injection",,tissue uptake,1.04 ± 0.05 %ID/g
